Results pooled from the literature.
Each numbered part is a random draw from the data of one study; scales do not carry over between parts.
Sequence of UniProt P10721 (whole entry, unmodified, looked up): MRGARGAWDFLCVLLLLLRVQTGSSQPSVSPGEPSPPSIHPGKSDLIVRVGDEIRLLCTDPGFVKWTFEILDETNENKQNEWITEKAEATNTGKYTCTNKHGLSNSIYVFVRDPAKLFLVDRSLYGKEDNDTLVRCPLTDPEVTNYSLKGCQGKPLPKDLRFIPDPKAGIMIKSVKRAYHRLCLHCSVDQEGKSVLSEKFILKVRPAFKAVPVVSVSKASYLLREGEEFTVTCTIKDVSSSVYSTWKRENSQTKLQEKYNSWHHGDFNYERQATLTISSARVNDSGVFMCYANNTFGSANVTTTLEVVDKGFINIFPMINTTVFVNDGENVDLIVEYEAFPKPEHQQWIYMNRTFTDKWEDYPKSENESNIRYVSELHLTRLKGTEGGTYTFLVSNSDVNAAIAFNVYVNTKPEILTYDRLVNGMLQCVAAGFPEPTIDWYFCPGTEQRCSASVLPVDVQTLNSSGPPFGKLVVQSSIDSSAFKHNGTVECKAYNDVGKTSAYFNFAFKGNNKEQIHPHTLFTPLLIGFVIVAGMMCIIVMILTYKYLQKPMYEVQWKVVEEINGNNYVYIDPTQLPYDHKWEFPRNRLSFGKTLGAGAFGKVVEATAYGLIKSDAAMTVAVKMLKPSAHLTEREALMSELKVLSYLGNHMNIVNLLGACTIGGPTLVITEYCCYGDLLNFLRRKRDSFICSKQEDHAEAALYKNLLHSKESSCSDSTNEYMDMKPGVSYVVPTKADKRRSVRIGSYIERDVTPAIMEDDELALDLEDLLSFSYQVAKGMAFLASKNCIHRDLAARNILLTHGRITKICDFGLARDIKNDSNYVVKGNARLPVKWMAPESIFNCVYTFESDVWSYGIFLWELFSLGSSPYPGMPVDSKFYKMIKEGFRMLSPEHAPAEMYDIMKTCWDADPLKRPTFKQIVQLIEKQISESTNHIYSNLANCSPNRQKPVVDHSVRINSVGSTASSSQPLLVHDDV
Sequence of UniProt P22455 (whole entry, looked up): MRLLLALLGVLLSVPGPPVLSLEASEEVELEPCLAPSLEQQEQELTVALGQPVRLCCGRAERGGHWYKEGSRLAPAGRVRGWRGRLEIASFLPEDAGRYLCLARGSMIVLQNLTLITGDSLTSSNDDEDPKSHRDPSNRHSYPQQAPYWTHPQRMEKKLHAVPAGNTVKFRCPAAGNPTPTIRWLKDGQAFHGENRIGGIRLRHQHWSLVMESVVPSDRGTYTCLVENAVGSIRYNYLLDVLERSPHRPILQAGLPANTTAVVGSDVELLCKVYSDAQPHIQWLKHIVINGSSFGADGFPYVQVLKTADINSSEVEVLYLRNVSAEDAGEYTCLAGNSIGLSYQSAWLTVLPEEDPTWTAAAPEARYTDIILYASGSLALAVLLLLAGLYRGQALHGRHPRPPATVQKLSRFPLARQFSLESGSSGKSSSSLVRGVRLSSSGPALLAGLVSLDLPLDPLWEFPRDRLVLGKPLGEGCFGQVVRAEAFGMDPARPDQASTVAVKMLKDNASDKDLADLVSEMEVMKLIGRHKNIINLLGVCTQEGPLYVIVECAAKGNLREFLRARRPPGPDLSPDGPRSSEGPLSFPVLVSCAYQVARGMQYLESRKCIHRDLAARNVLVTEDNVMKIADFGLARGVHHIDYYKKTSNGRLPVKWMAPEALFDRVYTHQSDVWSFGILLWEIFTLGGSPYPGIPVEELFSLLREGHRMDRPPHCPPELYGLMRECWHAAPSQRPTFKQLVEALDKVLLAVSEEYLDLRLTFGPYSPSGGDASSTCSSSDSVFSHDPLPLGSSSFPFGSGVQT
Sequence of UniProt Q13470 (whole entry, looked up): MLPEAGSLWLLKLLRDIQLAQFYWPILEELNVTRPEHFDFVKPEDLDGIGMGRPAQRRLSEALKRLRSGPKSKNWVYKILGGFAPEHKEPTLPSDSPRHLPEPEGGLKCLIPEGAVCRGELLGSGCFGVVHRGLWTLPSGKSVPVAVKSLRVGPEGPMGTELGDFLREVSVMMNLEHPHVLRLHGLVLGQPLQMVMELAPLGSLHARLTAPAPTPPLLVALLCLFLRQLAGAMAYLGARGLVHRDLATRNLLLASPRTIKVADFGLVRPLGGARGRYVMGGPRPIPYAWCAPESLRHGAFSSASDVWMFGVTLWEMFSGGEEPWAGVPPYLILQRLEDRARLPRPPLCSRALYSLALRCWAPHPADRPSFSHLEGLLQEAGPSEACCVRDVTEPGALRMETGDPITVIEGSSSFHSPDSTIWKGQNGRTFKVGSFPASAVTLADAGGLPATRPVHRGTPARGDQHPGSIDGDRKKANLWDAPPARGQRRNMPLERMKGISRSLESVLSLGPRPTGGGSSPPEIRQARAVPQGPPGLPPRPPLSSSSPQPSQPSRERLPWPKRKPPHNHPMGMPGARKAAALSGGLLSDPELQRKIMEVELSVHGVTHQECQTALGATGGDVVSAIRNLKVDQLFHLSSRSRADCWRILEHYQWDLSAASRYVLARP
Sequence of UniProt P54762 (whole entry, looked up): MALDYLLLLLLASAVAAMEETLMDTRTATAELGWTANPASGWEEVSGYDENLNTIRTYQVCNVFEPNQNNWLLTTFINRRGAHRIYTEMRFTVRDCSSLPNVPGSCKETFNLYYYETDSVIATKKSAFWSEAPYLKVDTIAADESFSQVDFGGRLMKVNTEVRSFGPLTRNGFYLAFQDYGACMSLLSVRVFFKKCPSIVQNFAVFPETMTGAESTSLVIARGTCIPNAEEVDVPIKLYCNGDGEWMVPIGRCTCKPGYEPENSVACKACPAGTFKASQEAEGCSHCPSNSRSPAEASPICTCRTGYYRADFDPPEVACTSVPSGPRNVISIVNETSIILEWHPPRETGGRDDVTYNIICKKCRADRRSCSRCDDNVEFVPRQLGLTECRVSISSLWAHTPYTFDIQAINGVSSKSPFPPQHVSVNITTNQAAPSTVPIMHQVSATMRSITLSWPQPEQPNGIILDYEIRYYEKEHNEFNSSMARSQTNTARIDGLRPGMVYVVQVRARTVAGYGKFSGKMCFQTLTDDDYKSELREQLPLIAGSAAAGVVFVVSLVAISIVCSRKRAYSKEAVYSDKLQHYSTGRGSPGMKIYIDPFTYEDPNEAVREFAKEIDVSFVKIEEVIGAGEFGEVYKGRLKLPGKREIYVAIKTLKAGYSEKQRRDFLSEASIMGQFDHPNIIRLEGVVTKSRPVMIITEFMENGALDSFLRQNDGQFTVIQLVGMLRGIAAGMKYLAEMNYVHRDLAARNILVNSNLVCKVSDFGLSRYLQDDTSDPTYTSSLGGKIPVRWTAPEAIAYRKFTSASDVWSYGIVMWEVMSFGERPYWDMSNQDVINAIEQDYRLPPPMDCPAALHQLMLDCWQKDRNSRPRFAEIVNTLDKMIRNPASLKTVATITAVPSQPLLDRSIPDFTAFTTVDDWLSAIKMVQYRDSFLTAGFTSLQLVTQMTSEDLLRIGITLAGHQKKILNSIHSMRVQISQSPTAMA
Sequence of UniProt Q2M2I8 (whole entry, looked up): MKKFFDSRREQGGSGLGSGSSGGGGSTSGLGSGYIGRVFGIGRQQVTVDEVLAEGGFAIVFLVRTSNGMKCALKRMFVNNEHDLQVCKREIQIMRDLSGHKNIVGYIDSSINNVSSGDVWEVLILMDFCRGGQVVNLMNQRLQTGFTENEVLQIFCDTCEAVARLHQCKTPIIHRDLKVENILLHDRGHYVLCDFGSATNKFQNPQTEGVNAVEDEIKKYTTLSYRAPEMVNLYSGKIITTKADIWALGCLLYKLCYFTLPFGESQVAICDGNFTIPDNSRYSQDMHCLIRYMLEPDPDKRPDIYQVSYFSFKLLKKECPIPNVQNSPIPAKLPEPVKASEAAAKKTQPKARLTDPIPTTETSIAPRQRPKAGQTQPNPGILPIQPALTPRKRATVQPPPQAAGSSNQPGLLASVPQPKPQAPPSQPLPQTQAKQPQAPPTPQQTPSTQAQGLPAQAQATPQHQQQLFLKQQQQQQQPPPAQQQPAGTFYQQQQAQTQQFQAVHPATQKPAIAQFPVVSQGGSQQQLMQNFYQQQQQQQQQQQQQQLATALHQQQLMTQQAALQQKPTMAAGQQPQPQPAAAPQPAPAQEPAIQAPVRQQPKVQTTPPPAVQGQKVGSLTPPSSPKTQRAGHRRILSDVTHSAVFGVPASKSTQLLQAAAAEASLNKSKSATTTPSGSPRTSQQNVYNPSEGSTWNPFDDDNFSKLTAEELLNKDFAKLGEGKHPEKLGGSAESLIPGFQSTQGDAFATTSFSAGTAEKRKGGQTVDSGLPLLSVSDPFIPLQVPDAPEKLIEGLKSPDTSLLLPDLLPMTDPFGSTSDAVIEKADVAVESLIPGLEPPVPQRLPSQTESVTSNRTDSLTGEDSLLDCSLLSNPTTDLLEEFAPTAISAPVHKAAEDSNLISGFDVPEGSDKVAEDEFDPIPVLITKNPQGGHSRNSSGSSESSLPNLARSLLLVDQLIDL
Sequence of UniProt Q9C098 (whole entry, looked up): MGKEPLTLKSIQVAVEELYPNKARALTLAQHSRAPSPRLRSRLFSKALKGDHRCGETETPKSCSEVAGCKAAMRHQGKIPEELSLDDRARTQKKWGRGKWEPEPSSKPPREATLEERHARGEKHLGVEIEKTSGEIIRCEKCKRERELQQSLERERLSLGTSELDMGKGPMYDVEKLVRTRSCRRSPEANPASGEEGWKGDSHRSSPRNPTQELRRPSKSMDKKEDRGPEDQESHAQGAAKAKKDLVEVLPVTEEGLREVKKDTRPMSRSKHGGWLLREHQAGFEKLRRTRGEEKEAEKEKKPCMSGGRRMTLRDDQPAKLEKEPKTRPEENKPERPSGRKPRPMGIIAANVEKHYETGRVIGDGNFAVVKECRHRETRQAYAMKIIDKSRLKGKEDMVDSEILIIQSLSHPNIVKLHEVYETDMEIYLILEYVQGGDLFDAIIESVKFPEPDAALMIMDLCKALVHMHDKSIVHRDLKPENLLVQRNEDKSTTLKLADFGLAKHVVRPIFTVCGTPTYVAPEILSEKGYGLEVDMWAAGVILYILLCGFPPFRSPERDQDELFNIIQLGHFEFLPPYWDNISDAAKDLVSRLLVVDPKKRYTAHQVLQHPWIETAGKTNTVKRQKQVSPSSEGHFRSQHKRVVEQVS

Sample 1 — medium: plasma; route: oral
SMILES: COc1ccc(-c2c(Nc3ccccn3)[nH]c3c(C4=CCCCC4)c(-c4ccccc4)nn3c2=O)cc1
| method | host | dose | time | setting | plasma concentration, median [ng/mL] |
| --- | --- | --- | --- | --- | --- |
| – | human patients | 200 mg once daily | 24 h | cycle 1 | 6980 |
| – | human patients | 100 mg once daily | 0 h | cycle 1 | 5290 |
| LC-MS/MS | human | 200 mg twice daily | 24 h | – | 10400 |
| – | human patients | 400 mg once daily | 3 h | cycle 1 | 2730 |
| – | human patients | 100 mg once daily | 8 h | cycle 1 | 4680 |
| LC-MS/MS | human | 50 mg once daily | 3 h | cycle 1 | 1510 |
| LC-MS/MS | human | 50 mg once daily | 24 h | cycle 1 | 1150 |
| LC-MS/MS | human | 50 mg once daily | 4 h | cycle 1 | 1490 |
| – | human patients | 400 mg once daily | 0.5 h | cycle 1 | 2020 |
| – | human patients | 150 mg once daily | 24 h | cycle 1 | 3320 |
| – | human patients | 150 mg once daily | 0.5 h | cycle 1 | 3230 |
| – | human patients | 400 mg once daily | 8 h | cycle 1 | 2160 |
| – | human patients | 400 mg once daily | 2 h | cycle 1 | 2610 |
| – | human patients | 400 mg once daily | 24 h | cycle 1 | 1210 |
| LC-MS/MS | human | 200 mg twice daily | 4 h | – | 11300 |
| – | human patients | 100 mg once daily | 4 h | cycle 1 | 4960 |
| LC-MS/MS | human | 200 mg twice daily | 0 h | – | 10500 |
| – | human patients | 150 mg once daily | 6 h | cycle 1 | 4090 |

Sample 2 — effect on: enzyme activity; action: inhibitor; tested at: 0.5 µM; relative to: control
Target: Tyrosine-protein kinase ZAP-70 (ZAP70, Homo sapiens, UniProt P43403)
Residues (P43403 1-619): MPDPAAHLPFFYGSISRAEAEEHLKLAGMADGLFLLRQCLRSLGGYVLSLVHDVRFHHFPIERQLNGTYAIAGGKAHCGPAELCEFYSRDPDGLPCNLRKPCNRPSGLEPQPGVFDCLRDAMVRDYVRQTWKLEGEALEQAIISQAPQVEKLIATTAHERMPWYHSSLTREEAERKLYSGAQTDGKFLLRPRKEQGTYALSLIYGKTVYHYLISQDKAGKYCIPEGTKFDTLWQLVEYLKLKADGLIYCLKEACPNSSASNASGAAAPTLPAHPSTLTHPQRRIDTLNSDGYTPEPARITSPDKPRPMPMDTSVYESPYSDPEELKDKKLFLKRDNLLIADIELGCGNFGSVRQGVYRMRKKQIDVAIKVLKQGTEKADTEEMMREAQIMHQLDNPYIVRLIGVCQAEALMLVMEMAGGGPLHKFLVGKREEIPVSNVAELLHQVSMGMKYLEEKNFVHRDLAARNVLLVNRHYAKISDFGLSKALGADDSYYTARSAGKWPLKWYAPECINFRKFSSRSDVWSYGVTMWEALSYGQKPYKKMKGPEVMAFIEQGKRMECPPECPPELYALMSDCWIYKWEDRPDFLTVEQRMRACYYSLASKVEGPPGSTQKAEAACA
| Structure (SMILES) | remaining activity |
| --- | --- |
| N#CC(=C(N)Sc1ccc(N)cc1)c1ccccc1C(F)(F)F | 102% |
| CCCC(=O)Oc1ccc2[nH]c(C(=O)c3cc4ccccc4[nH]3)cc2c1 | 100% |
| CCc1[nH]c(-c2ccc(OC)cc2)nc1-c1ccncc1 | 101% |
| Oc1ccc(Nc2nc(-c3ccc(Cl)cc3)cs2)cc1 | 94.7% |
| O=S(=O)(NCCNC/C=C/c1ccc(Br)cc1)c1cccc2cnccc12 | 97.9% |
| CSc1nc(-c2ccnc(N[C@@H](C)c3ccccc3)c2)c(-c2ccc(F)cc2)[nH]1 (racemic) | 102% |
| O=C1Cc2c([nH]c3ccc([N+](=O)[O-])cc23)-c2ccccc2N1 | 91.4% |
| CC[n+]1c(/C=C/N(C)c2ccccc2)n(-c2ccccc2)c2ccc(-c3nc4ccccc4s3)cc21 | 95.5% |
| COc1cc(Nc2c(C#N)cnc3cc(OCCCN4CCN(C)CC4)c(OC)cc23)c(Cl)cc1Cl | 101% |
| Cc1cncc2cccc(S(=O)(=O)N3CCCN(C(=O)CN)C[C@@H]3C)c12 | 102% |

Sample 3 — cell line: mouse MPNST tumor cells; method: high-content immunofluorescence imaging; item: nuclear SOX9; tested at: 10 µM; time: 12 h; setting: mean of 2 replicates; relative to: DMSO control; direction: higher = more nuclear SOX9
| SMILES | nuclear SOX9 intensity |
| --- | --- |
| O=C(O)c1ccccc1OP(=O)(O)O | 105 % of DMSO |
| CCOc1cc(/C=C2/C(=O)N(c3ccccc3)N=C2C)cc(Cl)c1OCC(=O)OC | 95.8 % of DMSO |
| Cc1cc(C)c(NC(=O)C2CC3CCC2C3)c(C)c1 (centres unmarked) | 93.5 % of DMSO |
| CCN(CC)CCNC(=O)c1c(C)[nH]c(/C=C2\C(=O)Nc3ccc(F)cc32)c1C | 234 % of DMSO |
| CC(C)NCC(O)c1ccc(O)c(O)c1 (centres unmarked) | 118 % of DMSO |
| CCC(=O)NC[C@H](Cc1ccc(OCCc2nc(-c3ccccc3)oc2C)cc1)N/C(C)=C\C(=O)c1ccc(C(F)(F)F)cc1 | 167 % of DMSO |
| O=C(O)c1ccccc1C(=O)Nc1ccc(-c2ccccc2)cc1 | 95.1 % of DMSO |
| CC[C@H](c1ccc(O)cc1)[C@@H](CC)c1ccc(O)cc1 | 110 % of DMSO |
| O=C(CN1CCN(C(=O)c2ccco2)CC1)Nc1cc(C(F)(F)F)ccc1Cl | 88.5 % of DMSO |
| O=C(Oc1cccc2cccnc12)c1ccccc1 | 94.6 % of DMSO |
| CN(Cc1ccc(C(C)(C)C)cc1)Cc1cccc2ccccc12 | 108 % of DMSO |
| O=C(Nc1c(-c2cccs2)nc2ccccn12)c1ccc(Cl)cc1 | 99.4 % of DMSO |
| Cc1ncsc1-c1ccc(CNC(=O)[C@@H]2C[C@@H](O)CN2C(=O)[C@@H](NC(=O)C2(C#N)CC2)C(C)(C)C)cc1 | 98.1 % of DMSO |
| OCCOCCN1CCN(C(c2ccccc2)c2ccc(Cl)cc2)CC1 (centres unmarked) | 168 % of DMSO |
| O=C1[C@H]2CCCC[C@H]2C(=O)N1CCCCN1CCN(c2nsc3ccccc23)CC1 | 159 % of DMSO |
| CN1[C@@H]2CC[C@H]1C[C@@H](OC(c1ccccc1)c1ccccc1)C2 | 122 % of DMSO |

Sample 4 — effect on: cell-free assay; method: competition with immobilised ligand; tested at: 1 µM
SMILES: CNC(=O)Nc1ccc2c(c1)[C@@]1(CC2)OC(=O)N(CC(=O)N(Cc2ccc(F)cc2)[C@@H](C)C(F)(F)F)C1=O
| target | remaining binding |
| --- | --- |
| DCLK3 (Homo sapiens, UniProt Q9C098) | 81% |
| SRMS (Homo sapiens, UniProt Q9H3Y6) | 88% |
| FGFR4 (Homo sapiens, UniProt P22455) | 98% |
| KIT (Homo sapiens, UniProt P10721, D816V) | 96% |
| AAK1 (Homo sapiens, UniProt Q2M2I8) | 100% |
| EGFR (Homo sapiens, UniProt P00533, G719S) | 100% |
| TAOK1 (Homo sapiens, UniProt Q7L7X3) | 97% |
| DYRK1A (Homo sapiens, UniProt Q13627) | 77% |
| MET (Homo sapiens, UniProt P08581) | 100% |
| KIT (Homo sapiens, UniProt P10721, T670I/V559D) | 100% |
| TNK1 (Homo sapiens, UniProt Q13470) | 100% |
| EPHB1 (Homo sapiens, UniProt P54762) | 100% |
| CDKL1 (Homo sapiens, UniProt Q00532) | 91% |
| KIT (Homo sapiens, UniProt P10721, L576P) | 81% |
| NEK10 (Homo sapiens, UniProt Q6ZWH5) | 91% |

Repeated from above (sample 3):
| SMILES | nuclear SOX9 intensity |
| --- | --- |
| CCN(CC)CCNC(=O)c1c(C)[nH]c(/C=C2\C(=O)Nc3ccc(F)cc32)c1C | 234 % of DMSO |
| CC(C)NCC(O)c1ccc(O)c(O)c1 (centres unmarked) | 118 % of DMSO |
| CCC(=O)NC[C@H](Cc1ccc(OCCc2nc(-c3ccccc3)oc2C)cc1)N/C(C)=C\C(=O)c1ccc(C(F)(F)F)cc1 | 167 % of DMSO |
